Assay results gathered from unrelated publications.
Compare with care: the assays were run in different laboratories. Numbers after ± are the reported error.

`CC(COC(=O)c1ccccc1)OC(=O)C(N)Cc1ccccc1` (mixture of isomers) gave a half-life of 21.3 ± 4.42 h (isotonic buffer; pH 7.4, 37 °C).
The half-life of `CCCCCCCC/C=C\CCCCCCCCOP(O)(O)=S.N` is reported as 1.41 h (mouse, male, nonirradiated; sc, dose not given).
With `O=C(OCC(=O)c1ccc([N+](=O)[O-])cc1)/C(=C/c1ccc(Cl)cc1)NC(=O)c1ccccc1` the half-life was 0.0233 h (chemical stability; glutathione solution; 500 µM).
For `CC[C@H](C)[C@H](NC(=O)[C@H](CC(N)=O)NC(=O)[C@@H]1CCCN1C(=O)[C@H](CO)NC(=O)[C@H](CC(N)=O)NC(=O)[C@@H](N)CCC(N)=O)C(=O)N[C@@H](Cc1ccccc1)C(=O)NCC(=O)N[C@@H](CCC(N)=O)C(=O)N[C@@H](Cc1c[nH]c2ccccc12)C(=O)N[C@@H](CCSC)C(=O)O`, the half-life was greater than 24 h (chemical stability; PBS; 280 µM, pH 7.2).
With `N=C(N)NCCC[C@H](NC(=O)[C@H](CCCCNC(=O)c1cncc(OS(=O)(=O)F)c1)NS(=O)(=O)c1cccc(F)c1)C(=O)NC1CCC1` the half-life was greater than 17 h (chemical stability, HPLC; glutathione solution; 50 µM, pH 8).
`CC[C@H](C)[C@@H]1NC(=O)[C@H](Cc2ccc(O)cc2)NC(=O)[C@@H](N)CSCSC[C@@H](C(=O)N2CCC[C@H]2C(=O)N[C@@H](CC(C)C)C(=O)NCC(N)=O)NC(=O)[C@H](CC(N)=O)NC(=O)[C@H](CCC(N)=O)NC1=O` gave a half-life of 86.4 h (phosphate buffer; 0.1 mg/mL, pH 2.0, 55 °C).
For `CC(C)C[C@H](NC(=O)[C@H](CCCCN)NC(=O)[C@H](CCC(=O)O)NC(=O)[C@H](C)NC(=O)[C@@H](NC(=O)[C@H](CCCCN)NC(=O)[C@H](CC(=O)O)NC(=O)[C@H](Cc1ccc(O)cc1)NC(=O)[C@H](Cc1ccccc1)NC(=O)[C@H](C)NC(=O)[C@H](CCCCN)NC(=O)[C@H](CC(C)C)NC(=O)[C@H](Cc1c[nH]c2ccccc12)NC(=O)[C@@H](N)CC(=O)O)C(C)C)C(=O)N[C@@H](CCCCN)C(=O)N[C@@H](CCC(=O)O)C(=O)N[C@@H](C)C(=O)N[C@@H](Cc1ccccc1)C(=O)N1CCC[C@H]1C(=O)N[C@@H](CC(=O)O)C(=O)N[C@@H](Cc1c[nH]c2ccccc12)C(=O)N[C@@H](C)C(=O)N[C@@H](CCCCN)C(=O)N[C@@H](C)C(=O)N[C@@H](C)C(=O)N[C@@H](Cc1ccc(O)cc1)C(=O)N[C@@H](CC(=O)O)C(=O)N[C@@H](CCCCN)C(=O)N[C@@H](C)C(=O)N[C@@H](C)C(=O)N[C@@H](CCC(=O)O)C(=O)N[C@@H](CCCCN)C(=O)N[C@@H](C)C(=O)N[C@@H](CCCCN)C(=O)N[C@@H](CCC(=O)O)C(=O)N[C@@H](C)C(=O)N[C@@H](C)C(=O)O`, the half-life was 4 h (cynomolgus monkey female, plasma; intravenous infusion, 75 mg/kg every other day, day 27).
`CC(COC(=O)c1ccccc1)OC(=O)C(N)C(C)C` (mixture of isomers) gave a half-life of roughly 24 h (pH 7.4).
`CC1(C)O[C@H](COP2(=O)OCc3ccccc3O2)[C@H](C(=O)NO)O1` (stereo partly drawn) has a half-life of 0.63 h (chemical stability; PBS; 1 mg/mL, pH 7.2).

Repeated from above:
For `CC[C@H](C)[C@H](NC(=O)[C@H](CC(N)=O)NC(=O)[C@@H]1CCCN1C(=O)[C@H](CO)NC(=O)[C@H](CC(N)=O)NC(=O)[C@@H](N)CCC(N)=O)C(=O)N[C@@H](Cc1ccccc1)C(=O)NCC(=O)N[C@@H](CCC(N)=O)C(=O)N[C@@H](Cc1c[nH]c2ccccc12)C(=O)N[C@@H](CCSC)C(=O)O`, the half-life was greater than 24 h (chemical stability; PBS; 280 µM, pH 7.2).
